Results collected from several papers.
± marks the error that the study gave.

CC(C)C[C@H](NC(=O)[C@H](CC(C)C)NC(=O)[C@H](Cc1c[nH]c2ccccc12)NC(=O)[C@H](CCC(=O)O)NC(=O)[C@@H](NC(=O)[C@H](Cc1ccccc1)NC(=O)[C@H](CCC(=O)O)NC(=O)[C@H](CCCCNC(=O)COCCOCCNC(=O)COCCOCCNC(=O)CC[C@H](NC(=O)CCCCCCCCCCCCCCCCCCC(=O)O)C(=O)O)NC(=O)[C@H](C)NC(=O)[C@H](CCCCN)NC(=O)[C@H](CCCCN)NC(=O)[C@H](CCC(=O)O)NC(=O)[C@H](CC(=O)O)NC(=O)[C@H](CC(C)C)NC(=O)[C@H](Cc1ccc(O)cc1)NC(=O)[C@H](CCCCN)NC(=O)[C@H](CO)NC(=O)[C@H](Cc1ccc(O)cc1)NC(=O)[C@H](CC(=O)O)NC(=O)[C@H](CO)NC(=O)[C@@H](NC(=O)[C@H](Cc1ccccc1)NC(=O)[C@@H](NC(=O)CNC(=O)[C@H](CCC(N)=O)NC(=O)C(C)(C)NC(=O)[C@@H](N)Cc1c[nH]cn1)[C@@H](C)O)[C@@H](C)O)C(C)C)C(=O)N[C@@H](CCC(=O)O)C(=O)NCC(=O)NCC(=O)N1CCC[C@H]1C(=O)N[C@@H](CO)C(=O)N[C@@H](CO)C(=O)NCC(N)=O
tmax,ss (human, plasma; subcutaneous, 16 mg weekly, week 20, cohorts 1 and 2): 12 h

CO[C@@H]1[C@H](OC(=O)N2CC(CCN3CCOCC3)C2)CC[C@]2(CO2)[C@H]1[C@@]1(C)O[C@@H]1CC=C(C)C
heart rate (humans; subcutaneous, 1.8 mg twice weekly for 4 weeks, day 28; baseline: baseline): 0 ± 10.3 beats/min

NC1(C(=O)N[C@@H](CCO)c2ccc(Cl)cc2)CCN(c2nc[nH]c3nccc2-3)CC1
Tmax (LC-MS/MS, non-compartmental; human patients, plasma; 160/480 mg cohort, cycle 2, median, added: enzalutamide): 2 h

N#Cc1ccc2c(c1)[C@H]1CCCN(C(=O)c3ccc4[nH]cnc4c3)[C@H]1C2
SHBG level (human males; 40 mg, end of trial): 43.1 nmol/L

COCCOc1cnc2ccn([C@H](C)c3nnc4c(F)cc(-c5cnn(C)c5)cn34)c(=O)c2c1
Ctrough (patients, plasma; oral, 100 mg twice daily, day 1 predose, 200 per day): 1580 ng/mL

COc1cccc(-c2n[nH]c(SCc3ccccn3)n2)c1OC
plasma concentration (Sprague-Dawley rats, both sexes; oral dietary, 30 mg/kg/day, day 7, 3 h): 762 ng/mL

CCN(CC)CCN(CCNCCc1ccc(O)c2[nH]c(=O)sc12)C(=O)CCOCCc1cccc2ccccc12
fraction unbound (equilibrium dialysis; rat, plasma): 0.11

OC[C@H]1O[C@@H](c2ccc(Cl)c(Cc3ccc(O[C@H]4CCOC4)cc3)c2)[C@H](O)[C@@H](O)[C@@H]1O
change in Sodium (Japanese type 1 diabetes patients, blood; 2.5 mg, day 28; baseline: baseline): 0 mEq/L

CC#CC(=O)N1CC[C@@H](n2c(=O)n(-c3ccc(Oc4ccccc4)cc3)c3c(N)ncnc32)C1
AUC(0-24h) (human, fasting, plasma; oral, 480 mg once daily, cycle 1 day 1): 8500 ± 1700 ng·h/mL

N[C@@H](CC(=O)O)C(=O)OC(C(=O)O)c1ccccc1[N+](=O)[O-].O=C(O)C(F)(F)F (mixture of isomers)
hydrolysis half-life, A isomer (1H NMR, dark; 50 mM sodium phosphate; concentration not given, pH 7.0, room temperature, 12.5% DMSO-d6): 13.9 ± 0.2 h

O=C(O)CCC(=O)O.[2H]C([2H])([2H])Oc1cc(C)c2[nH]ccc2c1CN1CC[C@@H](C2CC2)C[C@H]1c1ccc(C(=O)O)cc1
subjects with muscle pain TEAE (multiple ascending dose; healthy Chinese subjects; 125 mg twice daily): 0%

O=C1CC[C@H](N2Cc3cc(N4CCN(CC5CCN(c6ccc([C@@H]7c8ccc(O)cc8CC[C@@H]7c7ccccc7)cc6)CC5)CC4)ccc3C2=O)C(=O)N1
bioavailability increase fed vs fasted (female Sprague-Dawley rat, plasma; oral, 20 mg/kg; baseline: fasted state): 1.67 fold

COc1cccc(OC)c1-c1cc(C(=O)NC2(C(=O)O)C3CC4CC(C3)CC2C4)nn1-c1ccc(C(=O)N(C)CCCN(C)CCCN(C)C(=O)CN2CCN(CC(=O)[O-])CCN(CC(=O)[O-])CCN(CC(=O)[O-])CC2)cc1C(C)C.[177Lu+3] (stereo not shown)
tissue uptake (mouse, HT-29 xenograft, HT-29 tumour; 24 h post injection): 14 %ID/g

CS(=O)(=O)c1ccc(-c2nc3ccccc3n2CC(=O)N/N=C/c2ccc(Cl)cc2)cc1
ulcer number (rat, stomach; concentration not given, 4 h; baseline: indomethacin): 12.5%

OC[C@H]1O[C@@H](c2ccc(F)c(Cc3cc4ccccc4s3)c2)[C@H](O)[C@@H](O)[C@@H]1O
hypoglycaemia-related adverse event (Japanese patients, type 1 diabetes; oral, 100 mg/day, onset day 3; baseline: patients): 6%

CCOc1c([C@H](C)n2nc(C)c3c(N)ncnc32)cc(Cl)c(F)c1[C@@H]1CNC(=O)C1
Tmax median (patients, monotherapy; oral, 20 mg once daily, cycle 1 day 15): 1 h

C=CCN1CC(=O)N2[C@@H](Cc3ccc(O)cc3F)C(=O)N(Cc3cccc(N4CC(N5CCN(CC)CC5)C4)n3)C[C@@H]2N1C(=O)NCc1ccccc1
treatment-related ALT increased (advanced solid tumour patients; oral, 30 mg twice daily, grade ≥3, dose-escalation): 0%

CSc1cc(Oc2ccnc3[nH]c(=O)cnc23)ccc1NC(=O)Nc1cc(C(C)(C)C)nn1-c1ccccc1
tumour concentration (female nude mice, tumour-bearing; oral, 20 mg/kg, 1 h after last dose): 8.1 µM

COc1ccnc(C(=O)N[C@H]2COC(=O)[C@H](Cc3ccccc3)[C@@H](O)[C@H](C)OC2=O)c1O
DT50 (aerobic dark soil incubation; clay soil; 20 °C, modelling endpoint): 10.7 days

Repeated from above:
OC[C@H]1O[C@@H](c2ccc(Cl)c(Cc3ccc(O[C@H]4CCOC4)cc3)c2)[C@H](O)[C@@H](O)[C@@H]1O
change in Sodium (Japanese type 1 diabetes patients, blood; 2.5 mg, day 28; baseline: baseline): 0 mEq/L
